{"data": "Earlier results that unrelated publications cite", "CA2": "Carbonic anhydrase 2 (CA2, Homo sapiens, UniProt P00918)", "note": "Lines come from different studies, so protocols differ.", "chain of UniProt Q61143 (whole entry, looked up)": "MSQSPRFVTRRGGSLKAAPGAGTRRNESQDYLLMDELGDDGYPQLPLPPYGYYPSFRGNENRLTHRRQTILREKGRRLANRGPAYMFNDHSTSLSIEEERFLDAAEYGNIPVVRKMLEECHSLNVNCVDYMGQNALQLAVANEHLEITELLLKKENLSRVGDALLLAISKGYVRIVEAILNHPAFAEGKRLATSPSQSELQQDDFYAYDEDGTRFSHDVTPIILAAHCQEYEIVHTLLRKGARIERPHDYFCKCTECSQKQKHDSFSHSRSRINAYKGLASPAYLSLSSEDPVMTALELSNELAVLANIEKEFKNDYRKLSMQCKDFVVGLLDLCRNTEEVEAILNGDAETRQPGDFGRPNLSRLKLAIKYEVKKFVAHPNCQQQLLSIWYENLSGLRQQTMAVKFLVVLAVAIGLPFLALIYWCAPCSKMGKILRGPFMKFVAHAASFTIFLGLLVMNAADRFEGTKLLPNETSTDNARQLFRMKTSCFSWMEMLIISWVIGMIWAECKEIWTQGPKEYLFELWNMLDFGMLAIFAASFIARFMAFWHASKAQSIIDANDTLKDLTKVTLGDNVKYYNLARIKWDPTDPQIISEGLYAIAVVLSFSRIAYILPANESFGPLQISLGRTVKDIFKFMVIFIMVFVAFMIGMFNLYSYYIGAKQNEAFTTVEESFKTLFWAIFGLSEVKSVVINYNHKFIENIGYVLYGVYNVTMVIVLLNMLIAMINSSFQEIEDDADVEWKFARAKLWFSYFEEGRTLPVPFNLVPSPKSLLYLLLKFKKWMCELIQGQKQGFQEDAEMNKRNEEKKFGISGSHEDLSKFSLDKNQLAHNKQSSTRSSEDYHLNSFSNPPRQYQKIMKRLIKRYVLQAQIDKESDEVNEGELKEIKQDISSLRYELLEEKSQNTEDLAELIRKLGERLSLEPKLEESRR", "chain of UniProt Q9UM73 (whole entry, looked up)": "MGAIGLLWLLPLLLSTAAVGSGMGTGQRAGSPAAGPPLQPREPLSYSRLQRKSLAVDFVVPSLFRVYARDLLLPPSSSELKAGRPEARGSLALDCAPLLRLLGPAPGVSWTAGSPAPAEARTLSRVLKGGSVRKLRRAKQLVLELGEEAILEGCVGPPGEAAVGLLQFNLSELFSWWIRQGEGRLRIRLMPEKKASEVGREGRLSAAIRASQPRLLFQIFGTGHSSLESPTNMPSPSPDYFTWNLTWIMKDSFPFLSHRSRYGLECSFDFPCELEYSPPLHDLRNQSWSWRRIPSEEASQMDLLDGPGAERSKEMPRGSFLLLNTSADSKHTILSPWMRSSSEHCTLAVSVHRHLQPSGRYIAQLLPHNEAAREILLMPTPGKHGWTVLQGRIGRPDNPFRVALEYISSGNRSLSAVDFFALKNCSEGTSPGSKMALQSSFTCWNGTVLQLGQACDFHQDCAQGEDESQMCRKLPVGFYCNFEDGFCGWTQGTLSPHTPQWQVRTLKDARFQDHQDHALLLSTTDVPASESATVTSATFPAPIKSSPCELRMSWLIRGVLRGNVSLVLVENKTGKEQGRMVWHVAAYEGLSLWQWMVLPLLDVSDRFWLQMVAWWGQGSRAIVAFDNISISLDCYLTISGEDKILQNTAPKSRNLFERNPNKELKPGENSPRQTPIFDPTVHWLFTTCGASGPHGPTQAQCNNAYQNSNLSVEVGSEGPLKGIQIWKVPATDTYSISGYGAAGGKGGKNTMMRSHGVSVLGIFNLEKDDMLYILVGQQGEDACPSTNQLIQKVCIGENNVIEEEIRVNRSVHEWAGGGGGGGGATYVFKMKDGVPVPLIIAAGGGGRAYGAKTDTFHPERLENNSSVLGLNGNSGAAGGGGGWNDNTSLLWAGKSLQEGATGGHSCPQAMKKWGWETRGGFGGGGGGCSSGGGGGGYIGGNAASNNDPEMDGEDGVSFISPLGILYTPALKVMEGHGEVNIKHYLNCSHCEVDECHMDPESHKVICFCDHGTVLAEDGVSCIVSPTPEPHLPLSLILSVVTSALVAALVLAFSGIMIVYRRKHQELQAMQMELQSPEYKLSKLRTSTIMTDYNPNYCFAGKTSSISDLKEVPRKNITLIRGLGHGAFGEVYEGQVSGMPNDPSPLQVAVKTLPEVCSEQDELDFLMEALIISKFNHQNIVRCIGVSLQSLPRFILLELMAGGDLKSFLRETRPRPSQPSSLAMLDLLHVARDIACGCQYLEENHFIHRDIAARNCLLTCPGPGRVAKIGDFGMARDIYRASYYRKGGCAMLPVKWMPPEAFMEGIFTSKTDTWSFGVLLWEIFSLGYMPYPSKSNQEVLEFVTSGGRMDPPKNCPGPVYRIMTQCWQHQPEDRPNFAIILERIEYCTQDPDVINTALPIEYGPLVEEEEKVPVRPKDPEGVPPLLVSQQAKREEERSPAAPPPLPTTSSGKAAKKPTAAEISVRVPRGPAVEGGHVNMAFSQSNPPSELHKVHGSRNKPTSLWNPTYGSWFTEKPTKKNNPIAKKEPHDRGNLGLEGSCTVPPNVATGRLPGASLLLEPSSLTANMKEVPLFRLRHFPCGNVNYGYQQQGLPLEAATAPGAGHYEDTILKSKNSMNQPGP", "chain of UniProt Q6W5P4 (whole entry, looked up)": "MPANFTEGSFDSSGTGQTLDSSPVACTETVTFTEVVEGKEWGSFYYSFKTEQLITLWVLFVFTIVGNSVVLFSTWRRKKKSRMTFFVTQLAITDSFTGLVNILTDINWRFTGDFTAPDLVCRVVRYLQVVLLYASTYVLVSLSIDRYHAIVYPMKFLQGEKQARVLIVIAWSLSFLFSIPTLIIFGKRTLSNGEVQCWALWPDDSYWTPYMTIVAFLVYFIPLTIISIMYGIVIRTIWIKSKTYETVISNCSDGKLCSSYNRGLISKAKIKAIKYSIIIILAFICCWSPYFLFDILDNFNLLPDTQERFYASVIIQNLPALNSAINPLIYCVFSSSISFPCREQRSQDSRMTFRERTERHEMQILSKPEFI", "chain of UniProt P25090 (whole entry, looked up)": "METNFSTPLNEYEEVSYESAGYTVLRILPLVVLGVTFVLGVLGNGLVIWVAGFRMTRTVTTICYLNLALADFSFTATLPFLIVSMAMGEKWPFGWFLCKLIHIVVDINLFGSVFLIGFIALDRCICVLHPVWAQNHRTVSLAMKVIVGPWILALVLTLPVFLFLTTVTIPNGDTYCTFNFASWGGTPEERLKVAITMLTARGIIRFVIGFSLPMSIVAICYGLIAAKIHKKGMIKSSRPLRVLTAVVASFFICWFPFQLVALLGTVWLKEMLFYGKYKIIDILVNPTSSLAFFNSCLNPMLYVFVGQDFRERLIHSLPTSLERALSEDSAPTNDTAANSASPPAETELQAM", "chain of UniProt Q9HC35 (whole entry, looked up)": "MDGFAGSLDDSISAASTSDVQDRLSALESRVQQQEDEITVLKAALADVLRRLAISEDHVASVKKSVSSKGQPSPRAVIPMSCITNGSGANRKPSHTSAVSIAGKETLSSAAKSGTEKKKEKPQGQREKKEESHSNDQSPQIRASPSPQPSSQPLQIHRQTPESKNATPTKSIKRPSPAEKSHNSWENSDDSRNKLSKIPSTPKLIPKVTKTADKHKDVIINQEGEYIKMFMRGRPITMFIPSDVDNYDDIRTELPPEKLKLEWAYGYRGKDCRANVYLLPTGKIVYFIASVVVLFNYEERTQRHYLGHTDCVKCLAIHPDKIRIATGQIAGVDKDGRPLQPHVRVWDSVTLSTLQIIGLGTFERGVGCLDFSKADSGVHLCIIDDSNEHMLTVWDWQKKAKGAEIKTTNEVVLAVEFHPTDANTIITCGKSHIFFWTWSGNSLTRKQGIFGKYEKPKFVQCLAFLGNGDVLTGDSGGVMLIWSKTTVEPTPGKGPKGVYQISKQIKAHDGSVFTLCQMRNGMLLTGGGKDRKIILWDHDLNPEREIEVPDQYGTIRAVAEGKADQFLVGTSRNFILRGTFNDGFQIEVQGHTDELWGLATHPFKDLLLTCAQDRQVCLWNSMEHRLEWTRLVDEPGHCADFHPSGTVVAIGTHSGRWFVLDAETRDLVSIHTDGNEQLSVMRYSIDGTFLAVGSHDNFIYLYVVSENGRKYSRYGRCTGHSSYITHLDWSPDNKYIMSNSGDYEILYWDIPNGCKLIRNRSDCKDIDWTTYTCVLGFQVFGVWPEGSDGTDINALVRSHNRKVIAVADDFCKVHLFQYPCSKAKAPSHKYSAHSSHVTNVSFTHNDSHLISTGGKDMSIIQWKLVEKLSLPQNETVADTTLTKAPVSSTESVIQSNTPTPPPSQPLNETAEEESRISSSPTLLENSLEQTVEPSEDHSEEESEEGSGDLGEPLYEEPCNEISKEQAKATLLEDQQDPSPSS"}
{"Structure (SMILES)": "NS(=O)(=O)c1c(F)c(NCCc2ccc(O)cc2)c(SCCO)c(NC2CCCCCCCCCCC2)c1F", "target": "CA2", "test": "thermal shift", "conditions": "pH 7.0, 37 °C", "measurement": "Kd", "value": "> 200 µM"}
{"Structure (SMILES)": "COc1ccc2nc3cc(Cl)ccc3c(NCCCCNc3nc(N)nc(N)n3)c2c1", "target": "RNA repeat r(CAG)2", "test": "binding", "measurement": "Kd", "value": "> 300 µM"}
{"Structure (SMILES)": "Nc1c2ncn3c2nc[n+]1[C@@H]1O[C@H](COP(=O)(O)OP(=O)([O-])OC[C@@H]2C[C@@H](O)[C@H]3O2)[C@@H](O)[C@H]1O", "target": "cADPR receptor, sea urchin", "test": "Ca2+ release, agonist", "system": "sea urchin egg homogenate", "measurement": "EC50", "value": "5 µM"}
{"Structure (SMILES)": "CCOC(=O)N1CCC(c2cc(O)n3nc(C)c(-c4ccc(C(F)(F)F)cc4)c3n2)CC1", "target": "Trpc6 (Mus musculus, UniProt Q61143)", "measurement": "EC50", "value": "~1.39 µM"}
{"Structure (SMILES)": "Nc1c2ccn3c2nc[n+]1[C@@H]1O[C@H](COP(=O)(O)OP(=O)([O-])OC[C@H]2O[C@@H]3[C@H](O)[C@@H]2O)[C@@H](O)[C@H]1O", "target": "cADPR receptor, sea urchin", "test": "Ca2+ release, agonist", "system": "sea urchin egg homogenate", "measurement": "EC50", "value": "0.09 µM"}
{"Structure (SMILES)": "NS(=O)(=O)c1c(F)c(F)c(SCCO)c(NC(c2ccccc2)C(O)c2ccccc2)c1F (stereo not drawn)", "target": "CA2", "test": "thermal shift", "conditions": "pH 7.0, 37 °C", "measurement": "Kd", "value": "0.064 µM"}
{"Structure (SMILES)": "COc1cc(N2CCN(C(=O)CCOCCOCCOCCNC(=O)CN)CC2)ccc1Nc1ncc(Cl)c(Nc2ccccc2P(C)(C)=O)n1", "target": "ALK tyrosine kinase receptor/Echinoderm microtubule-associated protein-like 4 (Homo sapiens, UniProt Q9HC35+Q9UM73)", "test": "degrader", "system": "H3122", "measurement": "DC50", "value": "0.5 µM"}
{"Structure (SMILES)": "N=C(N)NCCC[C@H](NC(=O)[C@H](Cc1ccccc1)NC(=O)[C@@H](N)CO)C(=O)N[C@@H](CC(N)=O)C(=O)NCC(N)=O", "target": "NPSR1 (Homo sapiens, UniProt Q6W5P4)", "test": "calcium mobilization, agonist", "conditions": "receptor variant", "measurement": "EC50", "value": "> 2 µM"}
{"Structure (SMILES)": "NS(=O)(=O)c1c(F)c(F)cc(F)c1N[C@H]1CCCc2ccccc21", "target": "CA2", "test": "thermal shift", "conditions": "pH 7.0, 37 °C", "measurement": "Kd", "value": "2.2 µM"}
{"Structure (SMILES)": "CCCCC[C@H](O)/C=C/C=C\\C=C\\C=C\\[C@@H](O)[C@@H](O)CCCC(=O)O", "target": "FPR2 (Homo sapiens, UniProt P25090)", "test": "monocyte adherence, agonist", "measurement": "EC50", "value": "~0.0008 µM"}
{"Structure (SMILES)": "Cc1cc(S(N)(=O)=O)c(Cl)cc1NC1CCCCC1", "target": "CA2", "test": "thermal shift", "conditions": "pH 7.0, 37 °C", "measurement": "Kd", "value": "5 µM"}
{"Structure (SMILES)": "Nc1c2ncn3c2nc[n+]1[C@@H]1O[C@H](COP(=O)(O)OP(=O)([O-])OC[C@H]2O[C@@H]3C[C@@H]2O)[C@@H](O)[C@H]1O", "target": "cADPR receptor, sea urchin", "test": "Ca2+ release, agonist", "system": "sea urchin egg homogenate", "measurement": "EC50", "value": "0.058 µM"}
{"note": "For quick reference, copied from above:"}
{"Structure (SMILES)": "NS(=O)(=O)c1c(F)c(NCCc2ccc(O)cc2)c(SCCO)c(NC2CCCCCCCCCCC2)c1F", "target": "CA2", "test": "thermal shift", "conditions": "pH 7.0, 37 °C", "measurement": "Kd", "value": "> 200 µM"}
{"Structure (SMILES)": "COc1ccc2nc3cc(Cl)ccc3c(NCCCCNc3nc(N)nc(N)n3)c2c1", "target": "RNA repeat r(CAG)2", "test": "binding", "measurement": "Kd", "value": "> 300 µM"}
